Measurements collected from several papers.
Lines come from different studies, so protocols differ. Values joined by “and” are separate records of one study, mostly repeats; a detail may differ.
CDK7: Cyclin-dependent kinase 7 (CDK7, Homo sapiens, UniProt P50613)
UniProt P50613, sequence (whole entry, unmodified, looked up): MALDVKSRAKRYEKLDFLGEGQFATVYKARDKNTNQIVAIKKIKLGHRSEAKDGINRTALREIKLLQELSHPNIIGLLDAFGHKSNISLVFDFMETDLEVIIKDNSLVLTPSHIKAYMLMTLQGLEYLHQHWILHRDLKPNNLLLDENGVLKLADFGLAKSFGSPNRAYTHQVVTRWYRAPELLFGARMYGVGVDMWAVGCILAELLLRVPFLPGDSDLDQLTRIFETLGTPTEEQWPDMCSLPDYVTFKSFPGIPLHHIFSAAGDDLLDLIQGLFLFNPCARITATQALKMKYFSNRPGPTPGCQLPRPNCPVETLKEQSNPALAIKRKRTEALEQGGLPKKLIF
CDK7 with cyclin H: Cyclin-dependent kinase 7, with cyclin H (CDK7, Homo sapiens, UniProt P50613)
CDK7 with cyclin H, MAT1: Cyclin-dependent kinase 7, with cyclin H, MAT1 (CDK7, Homo sapiens, UniProt P50613)

COc1cc(Nc2nc(C)cc(-c3cnn4nc(OC)ccc34)n2)cc(C(F)(F)F)c1  remaining activity (CDK7; inhibitor; 1 µM; baseline: control): 73%
C=C1CCCCCCCCCC(CO)C1=O (centres unmarked)  remaining binding (CDK7; cell-free assay, competition with immobilised ligand; 10 µM): 99%
CNS(=O)(=O)Nc1nccc(Cc2c(C)c3ccc(Oc4ncccc4F)cc3oc2=O)c1F  remaining binding (CDK7; binding, competition with immobilised ligand; 10 µM): 100%
NC(=O)[C@@H](O)C[C@H]1CCc2sc3ncnc(O[C@H]4CC[C@H](N5CCOCC5)CC4)c3c21  inhibition (CDK7 with cyclin H; enzyme activity, inhibitor; 10 µM): 9%
CN1CCN(Cc2ccc(-c3ccc(CO[C@H]4CCC[C@@H]4NC(=O)c4cc(-c5cnn(C)c5)cnc4N)cc3)cc2)CC1  inhibition (CDK7 with cyclin H, MAT1; SelectScreen kinase profiling; 0.1 µM): 11%
COc1c2c(cc3oc(-c4ccccc4)cc(=O)c13)OCO2  inhibition (CDK7; inhibitor; 10 µM): 94%
C=CC(=O)N1CCc2ccc(-n3c(=O)ccc4cnc5ccc(-c6cnn(C)c6)cc5c43)cc21  remaining binding (CDK7; KINOMEscan; 1 µM; baseline: DMSO control): 56%
COc1c(OCCCN2CCOCC2)ccc2c1N=C(NC(=O)c1cnc(N)nc1)N1CCN=C21  remaining activity (CDK7; kinase activity, inhibitor; 1 µM; baseline: untreated control): 99%
C=CC(=O)Nc1cc(-c2nn(C3CCN(CCNC(=O)[C@H](C)CCC45CC6CC(CC(C6)C4)C5)CC3)c3ncnc(N)c23)ccc1Oc1ccccc1  inhibition (CDK7; inhibitor, KiNativ profiling; biochemical; 2 µM): 0%
CC(=O)N1c2ccc(-c3ccc(CNC(=O)c4cn5cc(-c6cnc(N)nc6)nc(N6CCOCC6)c5n4)cc3)cc2CC[C@@H]1C  remaining binding (CDK7; KINOMEscan; 10 µM): 89%
O=c1cc(-c2cccc(O)c2)oc2c1ccc1occc12  inhibition (CDK7; enzyme activity, inhibitor; 10 µM): > 50%
CC(C)=CC1OC(C)(C)C2C=C3C(=O)C(Cl)=CC(O)C3C3C(O)C4OC4C(=O)C132 (centres unmarked)  remaining binding (CDK7; cell-free assay, competition with immobilised ligand; 10 µM): 76%
COc1ccc(NC(=O)Nc2ccc3c(c2)C(=O)N(C(C)CO)CC(C)C(CN(C)Cc2ccc4c(c2)OCO4)O3)cc1 (centres unmarked)  remaining binding (CDK7; binding, competition with immobilised ligand; 10 µM): 77%
COCC12C(=O)NC3C4(C(OC)CC1O)C1CC5(O)C(OC)C(O)C(OC(C)=O)(C1C5OC(=O)c1ccccc1)C3(O)C(OC)C24 (centres unmarked)  remaining activity (CDK7 with cyclin H, MAT1; kinase activity, inhibitor, ProQinase kinase profiling; 25 µM; baseline: control): 100% and 118%
CS(=O)(=O)Nc1cccc(-c2csc3cnc(Nc4ccc(N5CCN(CCCCCOc6cccc7c6C(=O)N(C6CCC(=O)NC6=O)C7=O)CC5)cc4)nc23)c1 (centres unmarked)  inhibition (CDK7; probe labelling, inhibitor, KiNativ chemoproteomics; MOLT-4; 1 µM): 46.6%
COc1ccc(C(=O)/C=C/c2ccccc2-c2c[nH]c3ccc(C#N)cc23)c(O)c1  inhibition (CDK7 with cyclin H; enzyme activity, inhibitor; 20 µM): -15%
C=CC(=O)Nc1cccc(-c2cnc3[nH]cc(C(=O)NC(C)(C)C)c3n2)c1  inhibition (CDK7; kinase activity; 0.1 µM): 3% and 5%
Cc1cccc(O[C@H]2CCC[C@@H](C(C)CNCc3ccncc3)C2)c1 (relative stereo)  inhibition (CDK7; enzyme activity, inhibitor; 1 µM): 3%
CCn1cc(C(=O)O)c(=O)c2c(N)c(F)c(NC3CCCCC3)cc21  inhibition (CDK7 with cyclin H, MAT1; kinase activity; 0.1 µM, added: ATP at Km): -21.3%
CNC1C[S+]2CC[S+]3CC[S+](C1)[Ru-4]321([N]=C=S)[n]2c3ccc(OC)cc3c3c4c(c5cc(F)c[n+]1c5c32)C(=O)NC4=O (centres unmarked)  remaining binding (CDK7; KinomeScan; 0.1 µM; baseline: untreated): 96%
Nc1ncc2c(n1)-c1c([nH]c3ccc(C4=CCOCC4)cc13)CCC2  remaining binding (CDK7; binding, competition with immobilised ligand; 1 µM): 47%
CN1CCN(Cc2ccc(NC(=O)c3cccc(C#Cc4cnc(N)c5ncccc45)c3)cc2C(F)(F)F)CC1  remaining binding (CDK7; cell-free assay, competition with immobilised ligand; 0.5 µM): 29%
C[C@]1(O)CCCN(c2nc(Nc3ccc(S(=O)(=O)N[C@H]4CC[C@H](CN5CCN(c6ccc(C7CCC(=O)NC7=O)cc6F)CC5)CC4)cc3)ncc2C(F)(F)F)C1 (some centres unmarked)  remaining binding (CDK7; binding, competition with immobilised ligand; 1 µM): 38%
O=C(Cc1ccc(OCc2ccccc2)cc1)NC1(C(=O)O)CCN(C(=O)c2ccc(-c3cccc(Cl)c3)cc2)CC1  activity vs control (CDK7; enzyme activity, inhibitor; 10 µM): 193%
Cc1ccc(C(=O)NC(C)c2cccc(-c3ccncc3)c2)cn1 (centres unmarked)  remaining binding (CDK7; cell-free assay, competition with immobilised ligand; 10 µM): 30%
C#CCOC(=O)[C@]1(C)C=C(C(=O)OC(C)(C)C)C(=O)CC1  normalized luminescence (CDK7 with cyclin H, MAT1; kinase activity, Kinase-Glo; concentration not given): 0.0366
